Assay results from different studies.
Lines come from different studies, so protocols differ. “And” joins repeats or separate records; there may be more than shown. Numbers after ± are the reported error.
GRM2: Metabotropic glutamate receptor 2 (GRM2, Homo sapiens, UniProt Q14416)
Chain of UniProt P45983 (whole entry, looked up): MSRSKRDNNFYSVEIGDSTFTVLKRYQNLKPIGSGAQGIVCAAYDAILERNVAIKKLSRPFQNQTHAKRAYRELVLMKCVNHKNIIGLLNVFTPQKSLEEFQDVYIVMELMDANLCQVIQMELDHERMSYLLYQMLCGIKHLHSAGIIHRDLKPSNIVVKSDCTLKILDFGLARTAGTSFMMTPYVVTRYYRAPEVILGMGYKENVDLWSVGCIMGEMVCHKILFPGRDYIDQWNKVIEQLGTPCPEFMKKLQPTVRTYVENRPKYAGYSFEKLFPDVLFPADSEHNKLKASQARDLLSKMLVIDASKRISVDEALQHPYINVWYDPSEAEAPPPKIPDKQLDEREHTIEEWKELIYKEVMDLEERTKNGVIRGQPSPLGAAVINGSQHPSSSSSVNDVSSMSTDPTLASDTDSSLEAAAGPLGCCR
Chain of UniProt Q007T0 (whole entry, looked up): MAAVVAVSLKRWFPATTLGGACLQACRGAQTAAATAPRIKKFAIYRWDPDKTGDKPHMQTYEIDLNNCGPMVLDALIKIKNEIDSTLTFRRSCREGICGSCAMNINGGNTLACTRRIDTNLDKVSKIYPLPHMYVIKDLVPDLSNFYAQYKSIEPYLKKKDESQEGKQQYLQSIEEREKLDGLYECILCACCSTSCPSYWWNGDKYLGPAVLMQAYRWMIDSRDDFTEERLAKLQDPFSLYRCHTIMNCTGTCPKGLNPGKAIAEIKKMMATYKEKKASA
Chain of UniProt A5GZW8 (whole entry, looked up): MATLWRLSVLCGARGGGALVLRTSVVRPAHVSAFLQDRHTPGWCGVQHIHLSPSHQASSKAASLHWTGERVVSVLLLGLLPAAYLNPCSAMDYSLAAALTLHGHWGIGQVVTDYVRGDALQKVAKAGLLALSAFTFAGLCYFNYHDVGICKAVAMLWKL
Chain of UniProt Q14416 (whole entry, looked up): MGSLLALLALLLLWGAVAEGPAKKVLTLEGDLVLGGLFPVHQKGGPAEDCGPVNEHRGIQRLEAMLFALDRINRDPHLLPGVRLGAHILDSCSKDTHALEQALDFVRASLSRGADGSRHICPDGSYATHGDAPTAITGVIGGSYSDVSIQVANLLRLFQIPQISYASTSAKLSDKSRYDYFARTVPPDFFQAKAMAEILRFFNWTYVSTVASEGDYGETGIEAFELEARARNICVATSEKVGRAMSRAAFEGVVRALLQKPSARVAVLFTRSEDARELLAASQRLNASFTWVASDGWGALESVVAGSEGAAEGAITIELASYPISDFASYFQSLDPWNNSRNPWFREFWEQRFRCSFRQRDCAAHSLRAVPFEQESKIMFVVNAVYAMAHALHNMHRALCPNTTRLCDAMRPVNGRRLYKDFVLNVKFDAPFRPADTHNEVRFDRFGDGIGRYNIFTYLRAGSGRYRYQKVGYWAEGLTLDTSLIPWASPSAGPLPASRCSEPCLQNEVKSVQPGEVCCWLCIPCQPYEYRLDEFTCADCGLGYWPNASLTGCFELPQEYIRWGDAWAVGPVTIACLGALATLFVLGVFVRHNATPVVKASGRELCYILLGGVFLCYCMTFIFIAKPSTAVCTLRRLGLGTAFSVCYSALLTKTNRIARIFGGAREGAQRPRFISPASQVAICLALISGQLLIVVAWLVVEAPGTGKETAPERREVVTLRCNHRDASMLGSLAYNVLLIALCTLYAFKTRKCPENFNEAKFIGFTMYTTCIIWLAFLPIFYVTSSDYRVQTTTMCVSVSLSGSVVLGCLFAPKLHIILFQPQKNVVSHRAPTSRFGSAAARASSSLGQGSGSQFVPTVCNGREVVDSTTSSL
Chain of UniProt D0VWV4 (whole entry, looked up): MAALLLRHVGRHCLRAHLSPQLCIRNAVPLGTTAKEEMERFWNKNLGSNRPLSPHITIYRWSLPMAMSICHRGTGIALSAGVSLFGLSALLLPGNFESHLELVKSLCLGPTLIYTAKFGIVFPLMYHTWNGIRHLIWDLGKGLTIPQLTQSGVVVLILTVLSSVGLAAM
Chain of UniProt P12763 (whole entry, unmodified, looked up): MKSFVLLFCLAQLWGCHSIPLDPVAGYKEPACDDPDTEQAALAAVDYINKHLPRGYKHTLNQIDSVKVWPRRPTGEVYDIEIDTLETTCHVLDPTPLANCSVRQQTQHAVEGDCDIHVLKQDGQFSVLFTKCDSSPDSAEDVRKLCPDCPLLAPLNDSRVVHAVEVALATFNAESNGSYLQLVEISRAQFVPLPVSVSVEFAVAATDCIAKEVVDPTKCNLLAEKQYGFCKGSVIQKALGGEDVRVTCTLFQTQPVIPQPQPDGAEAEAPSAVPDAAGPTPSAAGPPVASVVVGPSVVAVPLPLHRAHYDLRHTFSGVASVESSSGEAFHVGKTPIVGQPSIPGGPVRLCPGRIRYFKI
Chain of UniProt P42684 (whole entry, looked up): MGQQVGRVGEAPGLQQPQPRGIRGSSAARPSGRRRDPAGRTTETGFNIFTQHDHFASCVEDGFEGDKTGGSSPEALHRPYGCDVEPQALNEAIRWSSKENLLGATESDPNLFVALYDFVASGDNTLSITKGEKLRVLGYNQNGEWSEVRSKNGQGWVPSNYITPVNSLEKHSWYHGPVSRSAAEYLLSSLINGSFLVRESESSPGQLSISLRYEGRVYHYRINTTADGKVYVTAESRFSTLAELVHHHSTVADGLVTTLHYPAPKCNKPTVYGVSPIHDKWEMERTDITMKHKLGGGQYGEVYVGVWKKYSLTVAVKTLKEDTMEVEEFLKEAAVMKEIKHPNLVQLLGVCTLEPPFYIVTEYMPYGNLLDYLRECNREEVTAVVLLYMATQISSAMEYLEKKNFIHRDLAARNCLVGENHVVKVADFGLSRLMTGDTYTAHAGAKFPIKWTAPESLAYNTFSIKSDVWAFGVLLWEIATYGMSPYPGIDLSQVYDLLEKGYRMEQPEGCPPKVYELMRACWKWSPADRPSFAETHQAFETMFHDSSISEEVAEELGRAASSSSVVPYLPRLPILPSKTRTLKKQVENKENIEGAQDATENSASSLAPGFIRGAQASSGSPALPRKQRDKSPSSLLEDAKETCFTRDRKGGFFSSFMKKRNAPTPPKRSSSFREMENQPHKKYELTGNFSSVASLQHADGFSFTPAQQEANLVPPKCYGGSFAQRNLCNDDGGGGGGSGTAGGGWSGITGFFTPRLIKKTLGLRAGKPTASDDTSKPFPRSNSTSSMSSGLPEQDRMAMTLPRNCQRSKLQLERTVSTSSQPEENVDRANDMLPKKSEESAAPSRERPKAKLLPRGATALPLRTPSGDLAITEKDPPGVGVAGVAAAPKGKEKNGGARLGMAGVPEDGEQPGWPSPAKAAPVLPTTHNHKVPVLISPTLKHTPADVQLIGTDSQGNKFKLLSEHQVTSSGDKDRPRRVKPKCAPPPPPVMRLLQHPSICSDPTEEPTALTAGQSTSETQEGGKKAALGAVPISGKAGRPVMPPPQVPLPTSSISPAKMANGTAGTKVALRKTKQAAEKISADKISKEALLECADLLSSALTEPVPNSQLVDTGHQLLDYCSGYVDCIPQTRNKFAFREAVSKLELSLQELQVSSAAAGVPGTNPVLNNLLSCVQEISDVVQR
Chain of UniProt P60893 (whole entry, looked up): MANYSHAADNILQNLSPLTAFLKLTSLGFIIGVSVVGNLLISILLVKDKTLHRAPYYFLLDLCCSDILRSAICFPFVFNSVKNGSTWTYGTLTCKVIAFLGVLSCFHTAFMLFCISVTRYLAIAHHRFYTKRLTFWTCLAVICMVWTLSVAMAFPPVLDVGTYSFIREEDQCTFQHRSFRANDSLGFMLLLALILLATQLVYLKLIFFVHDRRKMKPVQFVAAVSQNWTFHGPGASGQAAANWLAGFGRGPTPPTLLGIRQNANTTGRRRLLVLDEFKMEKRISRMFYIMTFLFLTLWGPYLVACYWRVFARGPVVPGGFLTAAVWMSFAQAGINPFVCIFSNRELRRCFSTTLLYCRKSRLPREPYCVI
Chain of UniProt Q5XI64 (whole entry, looked up): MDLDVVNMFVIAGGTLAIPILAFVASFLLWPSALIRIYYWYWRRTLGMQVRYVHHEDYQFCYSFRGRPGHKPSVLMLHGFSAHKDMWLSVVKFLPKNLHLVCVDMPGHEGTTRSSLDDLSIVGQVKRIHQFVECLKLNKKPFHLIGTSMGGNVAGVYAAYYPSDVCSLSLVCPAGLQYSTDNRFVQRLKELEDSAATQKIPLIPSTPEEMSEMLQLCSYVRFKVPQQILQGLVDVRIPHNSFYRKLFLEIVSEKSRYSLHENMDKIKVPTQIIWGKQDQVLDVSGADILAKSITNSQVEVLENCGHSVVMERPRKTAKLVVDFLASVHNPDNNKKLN
Chain of UniProt Q13133 (whole entry, looked up): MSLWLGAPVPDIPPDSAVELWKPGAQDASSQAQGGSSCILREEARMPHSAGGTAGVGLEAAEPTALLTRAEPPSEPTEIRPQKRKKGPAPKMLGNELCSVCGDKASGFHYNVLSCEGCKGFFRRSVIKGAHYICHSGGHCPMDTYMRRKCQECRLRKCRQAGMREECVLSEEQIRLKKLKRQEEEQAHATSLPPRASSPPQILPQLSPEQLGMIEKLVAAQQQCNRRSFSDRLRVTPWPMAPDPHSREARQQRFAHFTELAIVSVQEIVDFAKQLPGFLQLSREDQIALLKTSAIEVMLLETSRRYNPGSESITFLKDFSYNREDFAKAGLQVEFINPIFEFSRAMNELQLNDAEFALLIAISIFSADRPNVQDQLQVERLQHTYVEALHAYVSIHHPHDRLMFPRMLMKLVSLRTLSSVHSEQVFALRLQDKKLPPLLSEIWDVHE
Chain of UniProt Q96IU4 (whole entry, looked up): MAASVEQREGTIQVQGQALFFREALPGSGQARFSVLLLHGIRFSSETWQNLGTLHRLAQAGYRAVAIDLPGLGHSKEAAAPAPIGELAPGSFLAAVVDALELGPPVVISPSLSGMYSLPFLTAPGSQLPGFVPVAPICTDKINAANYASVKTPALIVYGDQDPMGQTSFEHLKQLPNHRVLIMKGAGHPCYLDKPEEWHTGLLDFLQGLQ

C[C@H]1CN(c2n[nH]c3nc(N[C@H]4CC[C@H](NS(=O)(=O)CCC(F)(F)F)CC4)ncc23)CCO1  remaining binding (Dolichyl-diphosphooligosaccharide--protein glycosyltransferase 48 kDa subunit (Homo sapiens, UniProt P39656); Kinobeads competition, measured: DDOST; 20 µM, unit not given; baseline: vehicle): 1.23
COc1cc(N)c(Cl)cc1C(=O)NC1CN2CCC1CC2 (centres unmarked)  log2 fold change (Probable G-protein coupled receptor 85 (GPR85, Homo sapiens, UniProt P60893); β-arrestin recruitment, TANGO luminescence, measured: GPR85; concentration not given; baseline: basal luminescence): -0.427
CCN1CCN(C(=O)N[C@@H](C(=O)N[C@@H]2C(=O)N3[C@@H]2SC(C)(C)[C@@H]3C(=O)O)c2ccccc2)C(=O)C1=O  kinact/KI (Penicillin-binding protein 2X (Streptococcus pneumoniae R6, UniProt P59676); inhibitor; Streptococcus pneumoniae): 140000 ± 48000 M⁻¹ s⁻¹
C/C=C1\C(=O)C[C@H]2[C@@H]3CCC4=CC(=O)CC[C@]4(C)[C@H]3CC[C@]12C  activity (NR1H3 (Homo sapiens, UniProt Q13133); concentration not given): inactive
CN(C(=O)n1cnc(-c2ccc[n+]([O-])c2)c1)C1CCCCC1  inhibition (GRM2; radioligand binding; 10 µM, added: [3H]LY341495): -4%
O=C(c1ccc(Cl)cc1)N1CCN2C(=O)N(OC(=O)N3CCOc4ccccc43)C(=O)C2C1 (centres unmarked)  probe labelling ratio (Putative protein-lysine deacylase ABHD14B (Homo sapiens, UniProt Q96IU4); MS-based ABPP; SW-620 conditioned medium; 10 µM, 1 h, 37 °C, median protein ratio; baseline: compound over DMSO): 1.32
CC[C@H](C)[C@@H]1NC(=O)[C@H](Cc2c[nH]c3ccccc23)NC(=O)[C@H](Cc2ccc(O)cc2)NC(=O)CSC[C@@H](C(N)=O)NC(=O)[C@H]([C@@H](C)O)NC(=O)[C@H](CO)NC(=O)[C@H](C(C)C)NC(=O)[C@H](Cc2ccc(O)cc2)NC(=O)[C@H](CCCNC(=N)N)NC(=O)[C@H](Cc2ccc(O)cc2)NC(=O)[C@H]([C@@H](C)O)NC(=O)[C@H]([C@@H](C)O)NC(=O)[C@H](Cc2c[nH]c3ccccc23)NC(=O)[C@H](CO)NC(=O)[C@H](CC(N)=O)NC(=O)[C@H](CO)NC1=O  ΔG (Vacuolar protein sorting-associated protein 26A/Vacuolar protein sorting-associated protein 35, Vps35 residues 1–390 (Homo sapiens, UniProt O75436+Q96QK1); ITC; 25 °C): -9.2 ± 0.06 kcal/mol
CC1(C)S[C@@H]2[C@H](NC(=O)Cc3ccccc3)C(=O)N2[C@H]1C(=O)O  kinact/KI (Penicillin-binding protein 2a (pbp2a, Streptococcus pneumoniae, UniProt Q8DNB6); inhibitor): 15000 ± 5400 M⁻¹ s⁻¹
COc1ccc(N2C(=O)N(c3c(C)cccc3Cl)Cc3cnc(Nc4ccc(C5CCN(C)CC5)cc4OC)nc32)nc1  inhibition (ABL2 (Homo sapiens, UniProt P42684); kinase activity, inhibitor; 0.5 µM, ARG): 96%
CC(C)NC[C@H](O)c1ccc(O)c(O)c1  enantioselectivity (OCT1 human; binding, frontal displacement chromatography; unit not given; baseline: higher Ki over lower Ki): 1.5
O=C(Nc1cccnn1)N1CCC(=Cc2cccc(Oc3ccc(C(F)(F)F)cn3)c2)CC1  inhibition of binding (GRM2; radioligand binding; 10 µM, added: [3H]LY341495): -4%
COc1cc(O)cc(/C=C/c2ccc(O)cc2)c1  binding stoichiometry (O-methyltransferase (Sorghum bicolor, UniProt A0A1B6PFV1); ITC; concentration not given, added: SAH+): 1.11 ± 0.008
O=C(O)Cc1c[nH]cn1  normalised MST signal (SLC6A6 (Homo sapiens, UniProt P31641, Y138A); binding, microscale thermophoresis; 7.81 µM, room temperature, added: 50 nM labelled protein; higher = more binding): 0.0586
O=C(Nc1nncs1)C(F)(F)Br  association constant (MAPK8 (Homo sapiens, UniProt P45983); binding, isothermal titration calorimetry): 5800 M⁻¹ and 4910 M⁻¹ and 4920 M⁻¹
Cc1ccc([C@H]2C[C@@H]2COc2cc(NCc3nnc(C)s3)nc(C)n2)nc1  selectivity ratio (PDE11A (Homo sapiens, UniProt Q9HCR9); enzyme activity, inhibitor, IMAP fluorescence polarization; isoform PDE11A4; baseline: Ki target over Ki PDE10A2): > 3.28e+06 fold
COc1cc(Nc2ncc(F)c(Nc3ccc4c(n3)NC(=O)C(C)(C)O4)n2)cc(OC)c1OC  inhibition (EPHB6 (Homo sapiens, UniProt O15197); KINOMEscan; 10 µM): 93%
CN(C(=O)n1cnc(-c2ccc[n+]([O-])c2)c1)C1CCCCC1  fold change (Monoacylglycerol lipase ABHD6 (Abhd6, Rattus norvegicus, UniProt Q5XI64); enzyme activity, ABPP; rat, brain; oral, 100 mg/kg/day, 1 days; baseline: vehicle): -19.3
C=C(CN(C(=O)c1c(C(F)F)nn(C)c1F)C1CC1)c1ccc(Cl)cc1Cl  reaction velocity (SDHD/SDHC/SDHB (Sus scrofa, UniProt A5GZW8+D0VWV4+Q007T0); enzyme activity, inhibitor, DCIP reduction; pig; 0.2 µM, added: DCIP 20 µM): 0.0054 µM/s and 0.00538 µM/s and 0.00514 µM/s
COc1ccc(Nc2nn3c(-c4ccccc4)ccnc3c2C(=O)Nc2ccccc2)cc1  decrease in α-glucosidase band quantity (α-glucosidase; SDS-PAGE; concentration not given, concentration equal to IC50): 56.1%
O=C(O)COP(=O)(O)O  Ki ratio (TPI1 (Saccharomyces cerevisiae, UniProt P00942, Y208F); enzyme activity, competitive inhibitor, GPDH/NADH-coupled; pH 4.9, 25 °C, ionic strength 0.1 NaCl, added: glyceraldehyde 3-phosphate substrate; baseline: mutant over wild type): 9420
[2H]c1c([2H])c([C@]2([2H])CCCN2C(=O)C(C)(C)Oc2ccc3cn[nH]c3c2)c([2H])c([2H])c1C([2H])([2H])[2H]  remaining binding (OXSR1 (Homo sapiens, UniProt O95747); KINOMEscan; 1 µM; baseline: DMSO control): 100%
CC(C)C[C@@H]1NC(=O)[C@H](C(C)C)NC(=O)CNC(=O)[C@H](CC(N)=O)NC(=O)[C@@H]2CCCN2C(=O)[C@H](Cc2ccc(O)cc2)NC(=O)[C@H](CCCNC(=N)N)NC(=O)[C@H](Cc2ccccc2)NC(=O)[C@@H](NC(=O)[C@H](CCCCN)NC(=O)[C@@H]2CCCN2C(=O)[C@H](CO)NC(=O)[C@H](C)NC(=O)[C@@H](N)Cc2ccc(O)cc2)CSSC[C@@H](C(=O)N[C@H](C(N)=O)[C@@H](C)O)NC(=O)[C@H](C)NC1=O  -ΔG (Alpha-2-HS-glycoprotein, asialo (AHSG, Bos taurus, UniProt P12763); binding, isothermal titration calorimetry; pH 7.0, 25 °C, added: asialofetuin): 5.23 kcal/mol
CSc1scc2c1-c1nc(SCC(=O)C(C)(C)C)ncc1CC2  active site volume (Dual specificity protein phosphatase 10, catalytic domain (Homo sapiens, UniProt Q9Y6W6); X-ray co-crystal structure; concentration not given): 51 ± 2.8 Å³
CCCCCCCCCC(=O)CC(=O)N[C@H]1CCOC1=O  melting temperature (qscR (Pseudomonas aeruginosa, UniProt G3XD77); protein-ligand complex stability, differential scanning fluorimetry): 46.3 °C
Nc1ncnc2c1ncn2[C@@H]1O[C@H](COP(=O)(O)OP(=O)(O)O)[C@@H](O)[C@H]1O  ΔS (Cell cycle histidine kinase CckA, cytoplasmic region (Caulobacter vibrioides, UniProt Q9X688); binding, ITC; added: without c-di-GMP): 9.73 cal/mol/K
CN1CCN(c2cc(-c3ccncc3)c(-c3ccc4ccccc4c3)nn2)CC1  activation (GRM2; agonist, FLIPR; 12.5 µM): 6%
